# Measurements of several laboratories.
# Each line is one published result; not all experiments were run side by side. “And” joins repeats or separate records; there may be more than shown. ± gives the spread as reported.
# Target: Acetylcholinesterase (ache, Electrophorus electricus, UniProt O42275)
# Sequence of UniProt O42275 (whole entry, looked up): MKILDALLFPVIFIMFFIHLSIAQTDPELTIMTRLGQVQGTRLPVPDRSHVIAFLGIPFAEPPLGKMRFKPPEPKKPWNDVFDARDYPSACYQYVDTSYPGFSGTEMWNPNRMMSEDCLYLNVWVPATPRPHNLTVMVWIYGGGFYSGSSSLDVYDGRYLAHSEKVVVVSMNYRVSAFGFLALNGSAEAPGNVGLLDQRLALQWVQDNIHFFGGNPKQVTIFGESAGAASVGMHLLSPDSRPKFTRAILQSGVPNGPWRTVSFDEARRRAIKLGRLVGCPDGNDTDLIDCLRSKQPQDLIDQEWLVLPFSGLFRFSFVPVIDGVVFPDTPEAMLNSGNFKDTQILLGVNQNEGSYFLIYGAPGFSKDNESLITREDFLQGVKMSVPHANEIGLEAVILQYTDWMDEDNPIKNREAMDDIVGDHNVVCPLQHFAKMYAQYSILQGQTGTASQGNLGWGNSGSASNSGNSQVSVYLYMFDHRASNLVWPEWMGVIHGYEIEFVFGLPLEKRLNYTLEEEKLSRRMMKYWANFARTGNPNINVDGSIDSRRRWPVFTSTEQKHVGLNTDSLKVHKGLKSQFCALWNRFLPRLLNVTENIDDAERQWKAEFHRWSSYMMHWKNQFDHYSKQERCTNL
# Effect on: enzyme activity
# Action: inhibitor
Structure (SMILES),assay,setting,IC50
COc1ccc(C2N=C(SCCCSc3nnc(Cc4ccccc4Nc4c(Cl)cccc4Cl)n3-c3ccc(Cl)c(Cl)c3)NC(C)=C2C(C)=O)cc1 (stereo not shown),Ellman,,0.53 µM
Clc1ccc(/N=N/c2ccc3nc(-c4ccccc4)c(I)c(-c4ccccc4)c3c2)cc1,Ellman,pH 7.4,15.9 µM
Cc1cc(O)c2c(c1)C(=O)c1c(O)ccc(O)c1C2=O,Ellman,,2.7 µM and 2.63 µM
C[n+]1ccc2c(c1)[nH]c1cc(Br)ccc12,,,0.67 µM
COc1cc2c(cc1O)[C@@H]1Cc3ccc(OC(C)=O)c(OC)c3CN1CC2,,,41.5 µM
COc1cc2c(cc1OC)C(=O)C1(C2)C(c2ccccc2)C(Cc2ccccc2)NC12C(=O)Nc1ccc(OC(F)(F)F)cc12 (stereo not shown),,pH 8,> 10 µM and 10.6 µM
N#Cc1ccc(Cn2cccc2C(/C=C/c2ccccc2)=N/NC(=N)N)cc1,Ellman,,56.1 µM
C/C=C/c1ccc(OC(C)=O)c(OC)c1,Ellman,pH 7.5,130 µM
O=C(CN1C(=O)c2ccccc2C1=O)Nc1cc[n+](Cc2ccc(F)cc2)cc1,Ellman,,2.1 µM
COc1cc(/C=N/NC(=O)COc2ccc(Sc3ccc(OCC(=O)N/N=C/c4ccc(O)c(OC)c4)cc3)cc2)ccc1O,,,45.4 µM
CC(C)=CCCC1(C)C=Cc2c(ccc3cc(-c4cc(O)cc(O)c4CC=C(C)C)oc23)O1 (stereo not shown),,,4.61 µM
"COc1ccc2c(c1)CC1c3c(cc4c(c3-2)OCO4)CCN1C (single isomer, unassigned; (-))",,,11.9 µM
COc1cc2c(cc1OC)C(=O)C1(C2)C(c2cccc([N+](=O)[O-])c2)C(Cc2ccccc2)NC12C(=O)Nc1ccc(OC(F)(F)F)cc12 (stereo not shown),,pH 8,2.21 ± 0.18 µM
O=C1CCCC2=C1C(c1c[nH]c3ccccc13)n1c(sc(=Cc3c[nH]c4ccccc34)c1=O)=N2 (stereo not shown),Ellman,,10.4 µM
CCN(CC)c1ccc(/C=N/NC(=O)COc2ccc(Sc3ccc(OCC(=O)N/N=C/c4ccc(N(CC)CC)cc4)cc3)cc2)cc1,,,33.5 µM
CCOC(=O)/C=C/c1c(-c2ccc(C)cc2)nc2ccc(/N=N/c3ccc([N+](=O)[O-])cc3)cc2c1-c1ccccc1,Ellman,pH 7.4,18.1 µM
O=C(CN1C(=O)c2ccccc2C1=O)Nc1ccc[n+](Cc2cccc(F)c2)c1,Ellman,,2.9 µM
COc1cc2c(cc1OC)C(=O)C1(C2)C(c2ccccc2Cl)C(Cc2ccccc2)NC12C(=O)Nc1ccc(OC(F)(F)F)cc12 (stereo not shown),,pH 8,> 10 µM and 17.1 µM
CCN(CCCCOc1ccc(CCC(=O)N2CCC(Cc3ccccc3)CC2)cc1OC)Cc1ccccc1,Ellman,,4.6 µM
Cc1ccc(-c2nc3ccc(/N=N/c4ccc(Br)cc4)cc3c(-c3ccccc3)c2I)cc1,Ellman,pH 7.4,12 µM
Nc1ccc(CCNc2c(NC3CCN(Cc4ccccc4)CC3)c(=O)c2=O)cc1,Ellman,,6.9 µM
O=C(Cc1ccccc1Nc1c(Cl)cccc1Cl)NNC(=S)Nc1ccc(Cl)c(Cl)c1,Ellman,,0.79 µM
COc1cc2c(cc1OC)C(=O)C(C(O)CC1CCN(Cc3ccccc3)CC1)C2 (stereo not shown),Ellman,,0.362 µM
COc1cc2c(cc1OC)C(=O)C1(C2)C(c2ccc(Cl)cc2Cl)C(Cc2ccccc2)NC12C(=O)Nc1ccc(OC(F)(F)F)cc12 (stereo not shown),,pH 8,8.49 ± 0.16 µM
COc1ccc(CNc2c(NC3CCN(Cc4ccccc4)CC3)c(=O)c2=O)cc1OC,Ellman,,5.6 µM
COc1cc2c(cc1O)CCN1Cc3c(ccc(O)c3OC)C[C@@H]21,,,27 µM
COc1cc(/C=N/NC(=O)COc2ccc(Sc3ccc(OCC(=O)N/N=C/c4cc(OC)c(OC)c(OC)c4)cc3)cc2)cc(OC)c1OC,,,67 µM
O=c1oc2c(CNCCc3cccc(F)c3)c(O)ccc2c2c1CCC2,Ellman,,0.482 µM
C/C(=C\CO)CCCC(C)CCCC(C)CCCC(C)C (stereo not shown),,,42.2 µM
COc1cc2c(cc1OC)C(=O)C1(C2)C(c2ccc(C)cc2)C(Cc2c[nH]c3ccccc23)NC12C(=O)Nc1ccc(OC(F)(F)F)cc12 (stereo not shown),,pH 8,12.8 ± 0.15 µM
NNC(=O)COc1ccc(Sc2ccc(OCC(=O)NN)cc2)cc1,,,23.1 µM

# Repeated from above:
Structure (SMILES),assay,setting,IC50
COc1cc2c(cc1OC)C(=O)C1(C2)C(c2ccccc2)C(Cc2ccccc2)NC12C(=O)Nc1ccc(OC(F)(F)F)cc12 (stereo not shown),,pH 8,> 10 µM and 10.6 µM
N#Cc1ccc(Cn2cccc2C(/C=C/c2ccccc2)=N/NC(=N)N)cc1,Ellman,,56.1 µM
